# Measurements from different studies.
# Each line is one published result; not all experiments were run side by side. Values joined by “and” are separate records of one study, mostly repeats; a detail may differ. ± gives the spread as reported.
# Chain of UniProt P48067 (whole entry, looked up): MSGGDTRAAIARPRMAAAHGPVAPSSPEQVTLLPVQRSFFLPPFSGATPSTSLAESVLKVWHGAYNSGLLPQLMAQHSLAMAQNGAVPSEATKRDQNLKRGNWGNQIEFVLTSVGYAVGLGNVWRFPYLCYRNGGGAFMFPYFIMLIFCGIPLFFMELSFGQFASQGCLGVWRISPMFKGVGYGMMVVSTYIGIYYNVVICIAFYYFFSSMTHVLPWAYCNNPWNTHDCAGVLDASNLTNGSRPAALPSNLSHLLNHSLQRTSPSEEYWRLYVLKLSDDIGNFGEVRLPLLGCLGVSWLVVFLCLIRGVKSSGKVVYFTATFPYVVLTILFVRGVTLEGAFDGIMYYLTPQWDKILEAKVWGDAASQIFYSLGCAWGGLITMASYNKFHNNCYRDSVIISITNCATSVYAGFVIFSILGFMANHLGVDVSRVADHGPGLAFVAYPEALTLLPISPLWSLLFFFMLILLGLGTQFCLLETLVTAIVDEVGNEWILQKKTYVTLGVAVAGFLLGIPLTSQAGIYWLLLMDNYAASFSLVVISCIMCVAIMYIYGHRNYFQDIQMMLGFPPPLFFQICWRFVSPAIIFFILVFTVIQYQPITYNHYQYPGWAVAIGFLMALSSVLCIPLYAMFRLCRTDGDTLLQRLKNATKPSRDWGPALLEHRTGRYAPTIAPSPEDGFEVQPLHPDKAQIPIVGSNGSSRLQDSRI
# Chain of UniProt Q64663 (whole entry, unmodified, looked up): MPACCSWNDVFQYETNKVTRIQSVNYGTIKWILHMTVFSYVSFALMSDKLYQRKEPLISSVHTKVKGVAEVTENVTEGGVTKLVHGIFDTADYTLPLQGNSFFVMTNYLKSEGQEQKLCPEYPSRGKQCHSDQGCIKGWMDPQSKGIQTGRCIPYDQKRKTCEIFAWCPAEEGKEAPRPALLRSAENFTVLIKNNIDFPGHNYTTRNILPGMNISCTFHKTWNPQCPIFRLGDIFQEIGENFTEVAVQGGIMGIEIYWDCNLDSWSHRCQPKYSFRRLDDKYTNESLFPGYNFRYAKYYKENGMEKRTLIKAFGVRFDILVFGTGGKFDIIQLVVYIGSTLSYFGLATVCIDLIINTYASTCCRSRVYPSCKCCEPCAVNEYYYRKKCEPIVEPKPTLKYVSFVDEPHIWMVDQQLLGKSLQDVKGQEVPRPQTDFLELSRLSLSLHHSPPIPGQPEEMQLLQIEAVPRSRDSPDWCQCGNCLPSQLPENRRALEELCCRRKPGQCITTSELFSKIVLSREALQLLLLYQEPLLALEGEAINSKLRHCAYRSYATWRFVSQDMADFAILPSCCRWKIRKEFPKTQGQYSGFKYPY
Molecule,target or system,assay,test system,conditions,scale,measurement,result
GLLQWVSVV,Jurkat T cells expressing 1G4 TCR,"NFAT-eGFP reporter, flow cytometry",peptide,"concentration not given, HLA-A*02:01 NY-ESO system",,reporter activation,0.095%
PKRSFIESNV,human MAGI1-3/6 PDZ construct (MBP fusion),surface plasmon resonance,peptide,concentration not given,higher = stronger binding,normalised SPR binding response,0 normalised RU
MTVCNASQRQAHAQATAVSL,HCC461,phage binding,peptide,,reference: targeting over control phage,selectivity ratio,1.9 ± 0.54
caspofungin,,,"adult ICU patients, mITT, serum","dose not given, EOT",,magnesium,0.7 mmol/L
human GAPDH,,co-immunoprecipitation,human RBC cytosol,"DSSO crosslinker, unit not given, added: Band 3 peptide 1-56 bait",reference: negative control,co-IP enrichment,836
colistin,Pseudomonas aeruginosa,broth microdilution,clinical isolate RKI-No_479/15,,,MIC,1 µg/mL
insulin degludec,,,human,"subcutaneous, 0.4 IU/kg, 1 FC level, single dose, reference formulation",,apparent clearance CL/F,1.42 ± 0.21 L/h
VLAQWIPRL,Jurkat T cells expressing 1G4 TCR,"NFAT-eGFP reporter, flow cytometry",peptide,"concentration not given, HLA-A*02:01 NY-ESO system",,reporter activation,0.19%
QDEKVKESYV,human SCRIB PDZ3-4 tandem (MBP fusion),automated holdup,"peptide, purified PDZ protein","concentration not given, unit not given","reference: biotin control resin, higher = stronger binding",binding intensity,0.561
cotadutide,,"metabolomics, measured: hepatic glutamine","ob/ob mice on AMLN diet, NASH model, liver",dose not given,,metabolite level,0.83 ± 0.04 scaled intensity
insulin aspart,,"ELISA after PEG precipitation, measured: free insulin aspart","human, type 1 diabetes, serum","subcutaneous, dose not given, least squares mean, single dose",,time to early 50 % Cmax,26.2 min
Polymyxin B,Staphylococcus aureus,DiSC3(5) fluorescence,,"concentration not given, 78 min",higher = more depolarisation,membrane depolarisation,511 a.u. and 562 a.u. and 442 a.u.
ALTQWVTEN,Jurkat T cells expressing 1G4 TCR,"NFAT-eGFP reporter, fluorescence microscopy",peptide,"concentration not given, HLA-A*02:01 NY-ESO system",,reporter activation,0.0158%
human retinal dehydrogenase 1,,co-immunoprecipitation,human RBC cytosol,"DSSO crosslinker, unit not given, added: Band 3 peptide 1-56 bait",reference: negative control,co-IP enrichment,5140
Peginesatide,UT7/EPO,"tyrosine phosphorylation, LC-MS/MS phosphoproteomics, GluC, measured: STAT1 tyrosine 701",,"10 nM, 15 min, added: 10 U/mL EPO",reference: vehicle,phosphorylation level,5.2 fold
GSGAGICTIV,human MAGI1-2/6 PDZ construct (MBP fusion),automated holdup,"peptide, purified PDZ protein","concentration not given, unit not given","reference: biotin control resin, higher = stronger binding",binding intensity,0.0985
milbemycin oxime,Saccharomyces cerevisiae,cell growth,"Pdr5 deleted, Cdr1 overexpressed","2^-5.966 µg/mL, added: fluconazole 10 µg/mL",,OD600,0.128 and 0.141
KDECVIATEV,human MAGI1-2/6 PDZ construct (MBP fusion),surface plasmon resonance,peptide,concentration not given,higher = stronger binding,normalised SPR binding response,0 normalised RU
human alpha-1-acid glycoprotein 1,,co-immunoprecipitation,human plasma,"no crosslinker, unit not given, added: Band 3 peptide 1-56 bait",reference: negative control,co-IP enrichment,0
GLLQWVSQV,Jurkat T cells expressing 1G4 TCR,"NFAT-eGFP reporter, flow cytometry",peptide,"concentration not given, HLA-A*02:01 NY-ESO system",,reporter activation,59.3%
human HSC70,,co-immunoprecipitation,human RBC cytosol,"DSSO crosslinker, unit not given, added: Band 3 peptide 1-56 bait",reference: negative control,co-IP enrichment,867
GLGTWISQV,Jurkat T cells expressing 1G4 TCR,"NFAT-eGFP reporter, fluorescence microscopy",peptide,"concentration not given, HLA-A*02:01 NY-ESO system",,reporter activation,3.27%
11-deoxycorticosterone,human CYP11B2,stopped-flow kinetic modelling,,"Model, branched, 4-state, CS, added: no adrenodoxin",,Kd,4500 nM
TCP-1 alpha,,co-immunoprecipitation,human RBC membrane,"DMTMM crosslinker, unit not given, added: Band 3 peptide 1-56 bait",reference: negative control,co-IP enrichment,116
ALLQWVDVV,Jurkat T cells expressing 1G4 TCR,"NFAT-eGFP reporter, fluorescence microscopy",peptide,"concentration not given, HLA-A*02:01 NY-ESO system",,reporter activation,0.00668%
ACEEQNPWARYLEWLFPTETLLLEL,,ex vivo fluorescence imaging,"peptide, BALB/c mice, 4T1 tumour-bearing, 4T1 tumour","intravenous, 5 nmol, 4 h post-injection",higher = more uptake,mean fluorescence intensity,3510 ± 623 a.u.
USP14,,co-immunoprecipitation,human RBC membrane,"DMTMM crosslinker, unit not given, added: Band 3 peptide 1-56 bait",reference: negative control,co-IP enrichment,32.4
ACDDQNPWRAYLDLLFPTDTLLLDLLW,,ex vivo fluorescence imaging,"peptide, BALB/c mice, 4T1 tumour-bearing, 4T1 tumour","intravenous, 5 nmol, 4 h post-injection",higher = more uptake,mean fluorescence intensity,5810 ± 880 a.u.
GSGAGSETVV,human MAGI1-2/6 PDZ construct (MBP fusion),automated holdup,"peptide, purified PDZ protein","concentration not given, unit not given","reference: biotin control resin, higher = stronger binding",binding intensity,0.114
BzATP,"P2X purinoceptor 7 (P2rx7, Rattus norvegicus, UniProt Q64663, Q143A)","ion current, agonist, two-electrode voltage clamp",Xenopus oocytes,0.41 µM,,normalized current,0.063 and 0.0135 and 0.023
human desmoplakin,,co-immunoprecipitation,human RBC membrane,"DMTMM crosslinker, unit not given, added: Band 3 peptide 1-56 bait",reference: negative control,co-IP enrichment,0
GSGAGKETRV,human SCRIB PDZ3-4 tandem (MBP fusion),automated holdup,"peptide, crude extract","concentration not given, corrected by standard peak, unit not given","reference: biotin control resin, higher = stronger binding",binding intensity,0.815
ALFEWIPRV,Jurkat T cells expressing 1G4 TCR,"NFAT-eGFP reporter, fluorescence microscopy",peptide,"concentration not given, HLA-A*02:01 NY-ESO system",,reporter activation,0.016%
"FNA / CGLSGLGVA-NH2 ([18F]FNA-labelled, C-amide)",,gamma counting,"peptide, healthy mice, Harderian glands",60 min,,tissue uptake,0.32 %ID/g
PMESGICTIV,human MAGI1-2/6 PDZ construct (MBP fusion),automated holdup,"peptide, crude extract","concentration not given, uncorrected, unit not given","reference: biotin control resin, higher = stronger binding",binding intensity,-0.00443
"DNA 1 CACTGGCCGTCTTACGGTCGCTCTGCTCGACG / DNA 2 CGACCGTAAGACGGCCAGTG (dsDNA; 20 bp, 3' 12 nt overhang)","RECQL 63-592 K325A (Bos taurus, UniProt A0JN36)",fluorescence anisotropy,double-stranded DNA,added: Mg2+ 3 mM,,Kd,18.5 ± 2.6 nM
methyl-β-cyclodextrin,"SLC6A9 (Homo sapiens, UniProt P48067)","transport activity, [3H]glycine uptake",,"2.5 mg/mL, 1 min, added: glycine 75 µM",higher = more transport,glycine uptake rate,25.1 a.u. and 24 a.u. and 26.1 a.u. and 25.8 a.u.
Teicoplanin,,measured: stability,human serum,"1 days, room temperature, low QC",,recovery,99.9%
SLLEWISQV,Jurkat T cells expressing 1G4 TCR,"NFAT-eGFP reporter, flow cytometry",peptide,"concentration not given, HLA-A*02:01 NY-ESO system",,reporter activation,0.25%
GSGAGKETSF,human MAGI1-3/6 PDZ construct (MBP fusion),automated holdup,"peptide, crude extract","concentration not given, corrected by standard peak, unit not given","reference: biotin control resin, higher = stronger binding",binding intensity,0.014
CCT4,,co-immunoprecipitation,human plasma,"unit not given, added: Band 3 peptide 1-56 bait",reference: negative control,co-IP enrichment,0.463
epoetin alfa,UT7/EPO,"microarray, measured: NFKBIZ (probe 223218_s_at)",,"5 U/mL, 90 min, added: SCF 10 nM",reference: vehicle,mRNA level,2.4 fold

# Some of these lines once more:
Molecule,target or system,assay,test system,conditions,scale,measurement,result
human alpha-1-acid glycoprotein 1,,co-immunoprecipitation,human plasma,"no crosslinker, unit not given, added: Band 3 peptide 1-56 bait",reference: negative control,co-IP enrichment,0
GLLQWVSQV,Jurkat T cells expressing 1G4 TCR,"NFAT-eGFP reporter, flow cytometry",peptide,"concentration not given, HLA-A*02:01 NY-ESO system",,reporter activation,59.3%
human HSC70,,co-immunoprecipitation,human RBC cytosol,"DSSO crosslinker, unit not given, added: Band 3 peptide 1-56 bait",reference: negative control,co-IP enrichment,867
GLGTWISQV,Jurkat T cells expressing 1G4 TCR,"NFAT-eGFP reporter, fluorescence microscopy",peptide,"concentration not given, HLA-A*02:01 NY-ESO system",,reporter activation,3.27%
11-deoxycorticosterone,human CYP11B2,stopped-flow kinetic modelling,,"Model, branched, 4-state, CS, added: no adrenodoxin",,Kd,4500 nM
